Measured values collected from several papers.
Compare with care: the assays were run in different laboratories. Values joined by “and” are separate records of one study, mostly repeats; a detail may differ. ± marks the error that the study gave.
CHRM3: Muscarinic acetylcholine receptor M3 (CHRM3, Homo sapiens, UniProt P20309)
UniProt P20309, sequence (whole entry, looked up): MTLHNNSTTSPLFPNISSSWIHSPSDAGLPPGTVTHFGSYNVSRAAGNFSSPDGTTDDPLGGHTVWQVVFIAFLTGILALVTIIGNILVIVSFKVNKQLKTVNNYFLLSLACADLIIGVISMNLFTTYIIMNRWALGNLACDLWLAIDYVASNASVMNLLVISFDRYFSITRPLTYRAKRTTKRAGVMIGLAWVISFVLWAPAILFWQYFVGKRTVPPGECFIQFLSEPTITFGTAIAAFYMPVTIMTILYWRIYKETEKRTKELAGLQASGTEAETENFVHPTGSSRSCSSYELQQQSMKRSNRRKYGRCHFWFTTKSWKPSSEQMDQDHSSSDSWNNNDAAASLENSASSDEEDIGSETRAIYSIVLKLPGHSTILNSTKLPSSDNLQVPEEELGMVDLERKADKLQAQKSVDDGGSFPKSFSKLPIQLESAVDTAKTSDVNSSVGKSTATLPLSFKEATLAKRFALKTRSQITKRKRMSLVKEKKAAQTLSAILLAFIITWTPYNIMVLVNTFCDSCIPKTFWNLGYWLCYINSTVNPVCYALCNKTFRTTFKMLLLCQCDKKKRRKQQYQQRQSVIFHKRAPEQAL
CHRM5: Muscarinic acetylcholine receptor M5 (CHRM5, Homo sapiens, UniProt P08912)
UniProt P08912, sequence (whole entry, looked up): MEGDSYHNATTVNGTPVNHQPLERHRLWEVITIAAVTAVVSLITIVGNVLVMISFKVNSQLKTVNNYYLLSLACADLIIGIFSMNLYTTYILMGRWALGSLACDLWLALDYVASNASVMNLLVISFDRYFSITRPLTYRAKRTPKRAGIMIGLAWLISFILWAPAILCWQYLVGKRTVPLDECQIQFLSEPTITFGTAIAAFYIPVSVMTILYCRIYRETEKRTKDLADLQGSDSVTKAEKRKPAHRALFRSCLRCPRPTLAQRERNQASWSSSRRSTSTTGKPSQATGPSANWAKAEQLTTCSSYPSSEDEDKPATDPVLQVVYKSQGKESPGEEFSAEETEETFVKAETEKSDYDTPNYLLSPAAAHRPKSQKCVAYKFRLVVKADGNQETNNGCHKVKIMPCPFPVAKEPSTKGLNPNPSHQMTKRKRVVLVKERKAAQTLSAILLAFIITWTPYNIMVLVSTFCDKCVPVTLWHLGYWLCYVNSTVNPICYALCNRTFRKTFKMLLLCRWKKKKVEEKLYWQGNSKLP
Hypoxanthine-guanine phosphoribosyltransferase: Hypoxanthine-guanine phosphoribosyltransferase (Trypanosoma cruzi, UniProt Q4DGA3)
SLC10A2: Ileal sodium/bile acid cotransporter (SLC10A2, Homo sapiens, UniProt Q12908)
UniProt Q12908, sequence (whole entry, looked up): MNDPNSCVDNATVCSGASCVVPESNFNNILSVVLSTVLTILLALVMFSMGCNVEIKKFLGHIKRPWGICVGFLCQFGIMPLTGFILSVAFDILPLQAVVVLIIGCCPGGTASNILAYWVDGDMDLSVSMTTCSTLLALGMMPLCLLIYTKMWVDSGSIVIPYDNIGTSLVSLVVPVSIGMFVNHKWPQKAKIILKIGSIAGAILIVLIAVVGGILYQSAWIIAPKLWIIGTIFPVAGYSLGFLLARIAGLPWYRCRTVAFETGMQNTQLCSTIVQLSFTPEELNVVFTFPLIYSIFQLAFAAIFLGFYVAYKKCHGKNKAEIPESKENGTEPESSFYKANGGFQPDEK
CHRM1: Muscarinic acetylcholine receptor M1 (CHRM1, Homo sapiens, UniProt P11229)
UniProt P11229, sequence (whole entry, looked up): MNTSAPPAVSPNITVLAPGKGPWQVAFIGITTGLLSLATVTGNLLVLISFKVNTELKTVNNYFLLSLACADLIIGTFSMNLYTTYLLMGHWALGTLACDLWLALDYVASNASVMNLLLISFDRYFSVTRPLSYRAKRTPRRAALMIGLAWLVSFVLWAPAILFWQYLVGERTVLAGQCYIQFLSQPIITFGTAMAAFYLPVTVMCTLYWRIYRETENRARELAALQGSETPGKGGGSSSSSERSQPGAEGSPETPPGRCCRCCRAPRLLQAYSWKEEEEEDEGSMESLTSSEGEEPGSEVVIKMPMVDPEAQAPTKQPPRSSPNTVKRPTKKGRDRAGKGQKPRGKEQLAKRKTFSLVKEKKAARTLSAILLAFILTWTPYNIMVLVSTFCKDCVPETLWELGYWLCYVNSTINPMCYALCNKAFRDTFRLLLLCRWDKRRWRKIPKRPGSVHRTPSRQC
GBA3: Cytosolic beta-glucosidase (GBA3, Homo sapiens, UniProt Q9H227)
UniProt Q9H227, sequence (whole entry, looked up): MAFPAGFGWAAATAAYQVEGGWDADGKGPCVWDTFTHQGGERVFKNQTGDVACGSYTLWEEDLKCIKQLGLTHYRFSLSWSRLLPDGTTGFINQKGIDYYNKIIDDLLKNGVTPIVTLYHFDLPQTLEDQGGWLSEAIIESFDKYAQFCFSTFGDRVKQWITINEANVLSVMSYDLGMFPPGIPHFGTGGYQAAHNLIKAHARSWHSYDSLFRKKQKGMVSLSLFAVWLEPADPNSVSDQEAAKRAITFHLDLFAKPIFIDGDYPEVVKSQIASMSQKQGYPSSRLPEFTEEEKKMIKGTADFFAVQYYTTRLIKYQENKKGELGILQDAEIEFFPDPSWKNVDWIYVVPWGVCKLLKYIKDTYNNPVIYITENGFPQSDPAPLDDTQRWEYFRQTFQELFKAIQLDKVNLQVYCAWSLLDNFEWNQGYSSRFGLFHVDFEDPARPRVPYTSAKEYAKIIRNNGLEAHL
CASP3: Caspase-3 (CASP3, Homo sapiens, UniProt P42574)
UniProt P42574, sequence (whole entry, looked up): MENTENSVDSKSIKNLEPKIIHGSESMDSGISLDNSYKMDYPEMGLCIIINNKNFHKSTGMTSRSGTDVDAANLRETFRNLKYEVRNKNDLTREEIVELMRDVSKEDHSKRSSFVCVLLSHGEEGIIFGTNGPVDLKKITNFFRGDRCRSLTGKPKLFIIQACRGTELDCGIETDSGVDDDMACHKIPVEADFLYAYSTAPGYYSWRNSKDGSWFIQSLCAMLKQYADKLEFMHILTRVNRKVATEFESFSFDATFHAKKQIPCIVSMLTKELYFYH
Drd2: D(2) dopamine receptor (Drd2, Rattus norvegicus, UniProt P61169)
UniProt P61169, sequence (whole entry, looked up): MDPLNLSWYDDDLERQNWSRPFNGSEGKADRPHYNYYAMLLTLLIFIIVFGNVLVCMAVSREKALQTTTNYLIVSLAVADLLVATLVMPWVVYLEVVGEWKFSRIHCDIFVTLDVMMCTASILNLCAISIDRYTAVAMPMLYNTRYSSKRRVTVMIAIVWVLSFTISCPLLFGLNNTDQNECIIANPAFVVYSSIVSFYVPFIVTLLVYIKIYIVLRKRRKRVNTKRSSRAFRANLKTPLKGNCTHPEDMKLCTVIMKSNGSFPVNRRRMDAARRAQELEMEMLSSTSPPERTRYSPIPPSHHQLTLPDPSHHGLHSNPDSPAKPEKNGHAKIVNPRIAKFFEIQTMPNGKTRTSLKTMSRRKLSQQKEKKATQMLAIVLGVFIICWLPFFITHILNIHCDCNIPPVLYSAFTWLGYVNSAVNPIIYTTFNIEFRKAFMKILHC
ADORA3: Adenosine receptor A3 (ADORA3, Homo sapiens, UniProt P0DMS8)
UniProt P07288, sequence (whole entry, looked up): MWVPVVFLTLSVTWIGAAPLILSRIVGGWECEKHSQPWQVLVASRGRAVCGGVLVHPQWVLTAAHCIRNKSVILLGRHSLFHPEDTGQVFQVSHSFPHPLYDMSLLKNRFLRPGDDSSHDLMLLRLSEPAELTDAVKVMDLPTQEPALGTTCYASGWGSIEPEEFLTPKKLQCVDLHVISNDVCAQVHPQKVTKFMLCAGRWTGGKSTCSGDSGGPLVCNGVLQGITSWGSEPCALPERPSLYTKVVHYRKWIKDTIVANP
UniProt P0DMS8, sequence (whole entry, looked up): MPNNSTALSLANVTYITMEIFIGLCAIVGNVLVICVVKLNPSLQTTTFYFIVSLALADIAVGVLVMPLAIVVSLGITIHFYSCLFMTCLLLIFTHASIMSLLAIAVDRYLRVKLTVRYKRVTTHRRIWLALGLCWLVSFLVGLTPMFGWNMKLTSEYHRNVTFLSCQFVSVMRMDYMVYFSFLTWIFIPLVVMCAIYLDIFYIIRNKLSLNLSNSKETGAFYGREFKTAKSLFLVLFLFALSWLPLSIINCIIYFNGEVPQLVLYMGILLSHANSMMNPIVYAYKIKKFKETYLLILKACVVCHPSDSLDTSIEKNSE
UniProt Q9R0C9, sequence (whole entry, looked up): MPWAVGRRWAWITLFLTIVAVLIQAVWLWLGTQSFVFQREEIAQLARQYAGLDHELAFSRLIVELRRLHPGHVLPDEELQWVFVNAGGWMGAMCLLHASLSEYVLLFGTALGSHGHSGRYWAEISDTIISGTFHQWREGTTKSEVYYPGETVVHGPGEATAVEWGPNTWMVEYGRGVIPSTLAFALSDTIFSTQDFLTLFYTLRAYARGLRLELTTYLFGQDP
UniProt P18031, sequence (whole entry, looked up): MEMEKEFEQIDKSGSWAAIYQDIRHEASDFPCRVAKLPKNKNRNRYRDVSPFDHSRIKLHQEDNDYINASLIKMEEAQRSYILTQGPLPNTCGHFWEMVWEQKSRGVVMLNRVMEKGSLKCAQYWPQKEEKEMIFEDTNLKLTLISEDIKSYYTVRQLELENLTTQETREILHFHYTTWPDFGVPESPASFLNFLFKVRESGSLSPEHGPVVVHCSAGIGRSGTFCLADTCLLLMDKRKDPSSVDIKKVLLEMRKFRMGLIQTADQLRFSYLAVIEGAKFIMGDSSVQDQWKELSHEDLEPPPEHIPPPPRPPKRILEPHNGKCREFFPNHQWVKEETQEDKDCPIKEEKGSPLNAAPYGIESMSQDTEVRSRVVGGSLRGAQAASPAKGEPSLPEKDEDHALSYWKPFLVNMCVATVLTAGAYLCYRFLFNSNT
UniProt Q01726, sequence (whole entry, looked up): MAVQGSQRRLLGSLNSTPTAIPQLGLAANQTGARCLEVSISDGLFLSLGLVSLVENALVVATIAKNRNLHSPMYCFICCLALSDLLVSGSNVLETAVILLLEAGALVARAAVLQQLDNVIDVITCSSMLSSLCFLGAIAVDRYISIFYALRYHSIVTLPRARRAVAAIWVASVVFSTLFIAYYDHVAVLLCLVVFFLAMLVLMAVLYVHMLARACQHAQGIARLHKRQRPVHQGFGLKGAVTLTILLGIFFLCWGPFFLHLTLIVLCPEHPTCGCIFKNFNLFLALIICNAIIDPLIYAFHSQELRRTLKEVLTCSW
UniProt P24666, sequence (whole entry, looked up): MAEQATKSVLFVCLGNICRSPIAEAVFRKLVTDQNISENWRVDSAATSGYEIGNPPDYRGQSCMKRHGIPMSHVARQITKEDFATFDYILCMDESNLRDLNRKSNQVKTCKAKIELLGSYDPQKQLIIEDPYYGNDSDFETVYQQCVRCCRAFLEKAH

For CCC(=O)NCc1cc(C(=O)NCCN2CCC(OC(=O)C(c3ccccc3)c3ccccc3)CC2)cc(C(=O)NCCN2CCN(CCCCC3CCN(CC(=O)N4c5ccccc5NC(=O)c5ccccc54)CC3)CC2)c1, the Ki was 30.2 nM (CHRM3; ligand displacement, radioligand).
For Cc1ccccc1C(=O)Nc1cccc(NC(=S)NC(=O)c2ccc3ccccc3c2)c1, the Ki was 21500 nM (ACP1 (Homo sapiens, UniProt P24666); enzyme activity, inhibitor, absorbance).
For CC1(C)CC(=O)C=C(Sc2nc3cc(Cl)ccc3s2)C1, the Ki was over 200000 nM (KDM2A (Homo sapiens, UniProt Q9Y2K7); ligand displacement, FP).
FC(F)(F)c1ccc(NC(=S)Nc2ccc3[nH]cnc3c2)cc1 has a Ki of 1640 nM (Beta-glucuronidase (uidA, Escherichia coli, UniProt P05804); enzyme activity, inhibitor, absorbance).
The Ki of CC1(C)NC(N)=Nc2nc3c(Cl)cc(Cl)cc3n21 is reported as 2290 nM (Bifunctional dihydrofolate reductase-thymidylate synthase, DHFR domain (Trypanosoma cruzi, UniProt Q27793); enzyme activity, competitive inhibitor; added: dihydrofolate 60 µM, NADPH 100 µM).
CN1CCN(CCCCC2CCN(CC(=O)N3c4ccccc4NC(=O)c4ccccc43)CC2)CC(N)C1 (stereo not shown) gave a Ki of 138 nM (CHRM5; ligand displacement, radioligand).
For O=c1[nH]c(O)nc2c([C@@H]3N[C@H](COP(=O)(O)O)[C@@H](O)[C@H]3O)c[nH]c12, the Ki was 36700 ± 670 nM (Hypoxanthine-guanine phosphoribosyltransferase).
C[C@H](CCC(=O)N[C@@H](CCC(=O)Nc1ccc(F)nc1)C(=O)O)[C@H]1CC[C@H]2[C@@H]3[C@H](O)C[C@@H]4C[C@H](O)CC[C@]4(C)[C@H]3CC[C@]12C gave a Ki of 5740 nM (SLC10A2; taurocholate uptake, inhibitor; ASBT-MDCK; 10 min, added: taurocholate 2.5 µM).
For CC(C)=CCCC1(C)Oc2ccc3cc(-c4cc(O)cc(O)c4CC=C(C)C)oc3c2CC1O (stereo not shown), the Ki was 10900 nM (PTPN1 (Homo sapiens, UniProt P18031); enzyme activity, inhibitor).
NCc1cc(C(=O)NCCN2CCN(CCCCC3CCN(CCCN4C(=O)CCc5ccccc54)CC3)CC2)cc(C(=O)NCCN2CCN(CCCCC3CCN(CC(=O)N4c5ccccc5NC(=O)c5ccccc54)CC3)CC2)c1 gave a Ki of 3.02 nM (CHRM1; ligand displacement, radioligand).
The Ki of C[C@H](CCC(=O)O)[C@H]1CC[C@H]2[C@@H]3[C@@H](OC(=O)c4cccnc4)C[C@H]4C[C@H](O)CC[C@]4(C)[C@H]3CC[C@]12C is reported as 34200 nM (SLC10A2; transporter uptake, inhibitor, radiometric).
With CC(OCCCCCN1C[C@H](O)[C@@H](O)[C@H](O)[C@H]1CO)C(C)(C)C (stereo partly shown) the Ki was 116000 nM (GBA3; enzyme activity, inhibitor).
CCCCOc1ccc(C(=O)OCC[N+]2(C)CC=CCC2)cc1 (stereo not shown) has a Ki of 5890 nM (CHRM3; ligand displacement, radioligand; cell membranes).
CC(C)COCCCCCN1C[C@H](O)[C@@H](O)[C@H](O)[C@@H]1CO has a Ki of 177000 nM (GBA3; enzyme activity, inhibitor).
O=C1Nc2ccccc2N(C(=O)CN2CCC(CCCCN3CCN(CCOC(=O)C4c5ccccc5Oc5ccccc54)CC3)CC2)c2ccccc21 gave a Ki of 7.59 nM (CHRM3; ligand displacement, radioligand).
The Ki of CC[C@H](C)[C@H](NC(=O)[C@H](CCC(N)=O)NC(=O)[C@H](CCC(=O)O)NC(=O)[C@H](CCC(=O)O)NC(=O)[C@H](CCCCN)NC(=O)[C@@H]1CCCN1C(=O)[C@H](CC(C)C)NC(=O)[C@H](CO)NC(=O)[C@H](CO)NC(=O)[C@@H](N)CC(C)C)C(=O)NCC(=O)N[C@@H](CCCCN)C(=O)N[C@@H](CO)C(=O)N[C@@H](CO)C(=O)N[C@H](C(=O)N[C@@H](CCCNC(=N)N)C(=O)NCC(=O)N[C@@H](CCCNC(=N)N)C(=O)N[C@@H](CCCCN)C(=O)N[C@@H](CO)C(=O)N[C@@H](CO)C(=O)N[C@@H](CCCNC(=N)N)C(=O)N[C@@H](CCCNC(=N)N)C(=O)N[C@@H](CCCCN)C(=O)N[C@@H](CCCCN)C(N)=O)[C@@H](C)O is reported as over 5000 nM (MC1R (Homo sapiens, UniProt Q01726); HEK-293T transfected; 2 h, 37 °C, added: Eu-NDP-MSH).
The Ki of CC(=O)N[C@@H](CCCNC(=N)N)C(=O)N[C@@H](C)C(=O)N[C@H](C=O)CC(=O)O is reported as over 100000 nM (CASP3; enzyme activity, inhibitor, fluorescence; pH 7).
For NCC1Cc2cccc(-c3cncc(N)c3)c2O1 (stereo not shown), the Ki was 3160 nM (ADRB2 (Homo sapiens, UniProt P07550); binding, radioligand displacement; SNAP-tagged receptor HEK membranes; added: 1 nM [3H]dihydroalprenolol).
The Ki of Fc1cc(OCCCN2CCN(c3cccc4sccc34)CC2)ccc1CN1CCOCC1 is reported as 24.6 nM (Drd2; cell-free assay, radioligand).
For O=C(COc1cccc2ccccc12)NCc1ccc(OP(=O)(O)O)c(OP(=O)(O)O)c1, the Ki was 16100 nM (Signal transducer and activator of transcription 5A, SH2 (Homo sapiens, UniProt P42229); ligand displacement, FP).
For O=C1Nc2ccccc2N(C(=O)CN2CCC(CCCCN3CCC(N4CCC(n5c(=O)[nH]c6ccccc65)CC4)CC3)CC2)c2ccccc21, the Ki was 2.69 nM (CHRM1; ligand displacement, radioligand).
C[C@H](CCC(=O)O)[C@H]1CC[C@H]2[C@@H]3[C@H](OC(=O)c4ccccc4)C[C@H]4C[C@H](O)CC[C@]4(C)[C@H]3CC[C@]12C has a Ki of 5790 nM (SLC10A2; transporter uptake, inhibitor, radiometric).
COc1ccc(CCCN[C@@H]2CCC[C@H]2CN[C@H]2CCC[C@@H]2CNCCCCN[C@H]2CCC[C@@H]2CN)cc1 has a Ki of over 500000 nM (MAOB (Homo sapiens, UniProt P27338); enzyme activity, inhibitor).
CC[C@H](C)[C@H](NC(C)=O)C(=O)N[C@H](C(=O)N[C@H](C(=O)N[C@H](CCN)C(=O)N[C@H](C=O)CC(=O)O)C(C)C)[C@@H](C)O has a Ki of over 100000 nM (CASP3; enzyme activity, inhibitor, fluorescence; pH 7).
The Ki of CCCCCCOc1ccc(C(=O)OCC[N+]2(C)CC=CCC2)cc1 (stereo not shown) is reported as 417 nM (CHRM3; ligand displacement, radioligand; cell membranes).
The Ki of CC[C@H](C)[C@H](NC(C)=O)C(=O)N[C@H](C(=O)N[C@H](C(=O)N[C@@H](CCCCN)C(=O)N[C@H](C=O)CC(=O)O)C(C)C)[C@@H](C)O is reported as 891 nM (CASP3; enzyme activity, inhibitor, fluorescence; pH 7).
For C[C@H](CCC(=O)N[C@@H](CCC(=O)Nc1ccc(O)cc1)C(=O)O)[C@H]1CC[C@H]2[C@@H]3[C@H](O)C[C@@H]4C[C@H](O)CC[C@]4(C)[C@H]3CC[C@]12C, the Ki was 7180 nM (SLC10A2; taurocholate uptake, inhibitor; ASBT-MDCK; 10 min, added: taurocholate 2.5 µM).
For O=c1[nH]cnc2c(CN[C@@H](CO)CCP(=O)(O)O)c[nH]c12, the Ki was 480 ± 30 nM (Hypoxanthine-guanine phosphoribosyltransferase).
For Cc1cc(C(=O)N[C@@H](Cc2ccccc2)[C@H](O)CN[C@H](C(=O)NCC(C)C)[C@H](C)O)cc(C(=O)N[C@H](C)c2ccccc2)c1, the Ki was 731 ± 65 nM (Beta-secretase 1 (BACE1, Homo sapiens, UniProt P56817)).
For CC(C)C[C@@H](C=O)NC(=O)[C@H](Cc1c[nH]c2ccccc12)NC(=O)[C@H](CCCCN)NC(=O)[C@H](CO)NC(=O)[C@H](CO)NC(=O)OCc1ccccc1, the Ki was 155000 nM and > 100000 nM (Prostate-specific antigen (Homo sapiens, UniProt P07288); enzyme activity, inhibitor, fluorescence; pH 7.8).
COc1cccc(-c2c(C#N)c(N)nc(SCc3ncc[nH]3)c2C#N)c1 has a Ki of 71 nM (ADORA3; ligand displacement, radioligand; cell membranes).
CC(=O)NCC(=O)N[C@@H](CCCCN)C(=O)N[C@H](C=O)CC(=O)O has a Ki of over 100000 nM (CASP3; enzyme activity, inhibitor, fluorescence; pH 7).
For CCC(=O)NC1CN(CCCCC2CCN(CC(=O)N3c4ccccc4NC(=O)c4ccccc43)CC2)CCN(CC(=O)N2CCC(N3CCC(n4c(=O)[nH]c5ccccc54)CC3)CC2)C1 (stereo not shown), the Ki was 132 nM (CHRM5; ligand displacement, radioligand).
The Ki of CC(=O)N[C@@H](C)C(=O)N[C@@H](CC(=O)O)C(=O)N[C@@H](CCCNC(=N)N)C(=O)N[C@H](C(=O)N[C@H](C=O)CC(=O)O)[C@@H](C)O is reported as 100 nM (CASP3; enzyme activity, inhibitor, fluorescence; pH 7).
O=C1Nc2ccccc2N(C(=O)CN2CCC(CCCCNCCCCC3CCN(CCCN4C(=O)CCc5ccccc54)CC3)CC2)c2ccccc21 gave a Ki of 138 nM (CHRM3; ligand displacement, radioligand).
With C/C(=N\OCCCN(C)Cc1ccccc1)c1ccc(C(F)(F)F)cc1 the Ki was 15.6 ± 1.4 nM (Sigmar1 (Rattus norvegicus, UniProt Q9R0C9); binding).
O=C1Nc2ccccc2N(C(=O)CN2CCC(CCCCN3CCC(OC(=O)C(c4ccccc4)c4ccccc4)CC3)CC2)c2ccccc21 has a Ki of 53.7 nM (CHRM5; ligand displacement, radioligand).
The Ki of O=c1[nH]cnc2c([C@@H]3N[C@H](COP(=O)(O)O)[C@@H](O)[C@H]3O)c[nH]c12 is reported as 180 ± 30 nM (Hypoxanthine-guanine phosphoribosyltransferase).
CC(=O)N[C@@H](Cc1ccccc1)C(=O)N[C@@H](CC(=O)O)C(=O)N[C@H](C(=O)N1CCC[C@H]1C(=O)N[C@H](C=O)CC(=O)O)C(C)C gave a Ki of 3.02 nM (CASP3; enzyme activity, inhibitor, fluorescence; pH 7).
Clc1cc(CN2CCCC2)ccc1OCCCN1CCN(c2cccc3sccc23)CC1 has a Ki of 101 nM (Drd2; cell-free assay, radioligand).
With CC(C)C[C@H](NC(=O)[C@H](CC(C)C)NC(=O)[C@H](Cc1c[nH]cn1)NC(=O)[C@H](CC(C)C)NC(=O)[C@@H](NC(=O)[C@H](CCC(=O)O)NC(=O)[C@H](CO)NC(=O)[C@H](Cc1c[nH]c2ccccc12)NC(=O)[C@H](C)NC(=O)[C@@H](N)[C@@H](C)O)C(C)C)C(=O)N[C@@H](CO)C(=O)N[C@@H](CCCNC(=N)N)C(=O)NCC(=O)NCC(=O)NCC(=O)N[C@@H](CO)C(=O)N[C@@H](CCCCN)C(N)=O the Ki was 274000 ± 40000 nM (Plasma membrane calcium-transporting ATPase 3 (ATP2B3, Homo sapiens, UniProt Q16720); Ca2+-Mg2+-ATPase activity, inhibitor; Sf9 cell microsomes).
For CC[C@H](C)[C@H](NC(C)=O)C(=O)N[C@H](C(=O)N[C@H](C(=O)N[C@@H](CN)C(=O)N[C@H](C=O)CC(=O)O)C(C)C)[C@@H](C)O, the Ki was 4790 nM (CASP3; enzyme activity, inhibitor, fluorescence; pH 7).
The Ki of Nc1ncnc2c1ncn2[C@@H]1O[C@H](C(=O)NCCCF)[C@@H](O)[C@H]1O is reported as 150 nM (ADORA3; ligand displacement, radioligand; cell membranes).
